Assay results collected from several papers.
Protocols differ between the studies behind these lines. ± gives the spread as reported.

| SMILES | assay | system | conditions | how to read | endpoint | result |
| --- | --- | --- | --- | --- | --- | --- |
| Cn1c(=O)oc2ccc(-c3ccc(CC(C#N)NC(=O)C4CNCCCO4)c(F)c3)cc21 (stereo not drawn) |  | human | oral, 20 mg once daily, TEAE, multiple ascending dose |  | WBC count decreased incidence | 11.1% |
| CCOc1ccc2c(c1)C(C)=CC(C)(C)N2c1cc(OCC)cc2c1NC(C)(C)C=C2C | LC-MS/MS | cattle, Holstein, kidney | oral, 50 mg/kg complete feed of ethoxyquin, 42 days, highest value |  | residue concentration | 10.7 ng/g |
| Cc1ccc(C(=O)N[C@@H](CO)CC(C)C)cc1CO | LC-MS | Sprague-Dawley rat, both sexes, rat liver microsomes | 10 µM of parent drug, 10 min, pH 7.4, with: NADPH | baseline: parent drug at time zero | metabolite peak area | 0.2% |
| CC(C)(O)c1ncc([S@](N)(=O)=NC(=O)Nc2c3c(cc4c2CCC4)CCC3)s1 |  | healthy human volunteers, plasma | oral, 10 mg once daily, day 14, capsule formulation |  | dose-normalised AUC(0-tau) | 1120 ng·h/mL/mg |
| CC12CC(c3ccc(S(C)(=O)=O)cc3)C3=C4CCC(=O)C=C4CCC3C1CCC2(O)C(F)(F)C(F)(F)F (stereo not drawn) |  | human, plasma | oral, 4 mg, single dose alone, geometric mean |  | apparent oral clearance | 12.3 L/h |
| COc1cc(OC)cc(C2=C3C(C)=C(I)C(/C=C/c4c[nH]c5ccccc45)=[N+]3[B-](F)(F)n3c(/C=C/c4c[nH]c5ccccc45)c(I)c(C)c32)c1 |  | dichloromethane |  |  | Stokes shift | 640 cm⁻¹ |
| CCCC[C@H](NC(C)=O)C(=O)N[C@H]1CC(=O)NCCCC[C@@H](C(=O)N[C@@H](C(=O)N2CCC[C@@H]2C(N)=O)C(C)C)NC(=O)[C@H](Cc2c[nH]c3ccccc23)NC(=O)[C@H](CCCN=C(N)N)NC(=O)[C@@H](Cc2ccc3ccccc3c2)NC(=O)[C@@H]2CCCN2C1=O |  | dogs, plasma | subcutaneous, 0.75 mg/kg once daily, day 5 |  | Cmax | 2600 ± 400 ng/mL |
| CCCC[C@H](NC(=O)[C@H](CC(C)C)N(C)C(=O)CNC(=O)[C@@H](NC(=O)[C@H](Cc1ccccc1)NC(=O)[C@H](CCCCN)NC(=O)[C@@H](N)CC(=O)O)C(C)C)C(N)=O |  | anesthetized Gottingen minipig | subcutaneous, 10 µg/kg | baseline: baseline | heart rate | 3.15 ± 4.88% |
| CC[C@H](C)[C@@H]1NC(=O)[C@H](Cc2ccccc2)NC(=O)[C@@H](NC(=O)[C@H](CCCNC(=N)N)NC(=O)[C@H](Cc2ccccc2)NC(=O)[C@H](Cc2ccccc2)NC(=O)[C@H](CCCCN)NC(=O)[C@H](CO)NC(=O)[C@H](CC(C)C)NC(=O)[C@H](CCCNC(=N)N)NC(=O)[C@H](CCSC)NC(=O)[C@H](C)N)CCCNC(=O)NCC[C@@H](C(=O)N[C@@H](CCCNC(=N)N)C(=O)N[C@@H](CCCCN)C(=O)N[C@@H](CCCCN)C(=O)O)NC(=O)[C@H](CC(C)C)NC1=O | circular dichroism | 2.5 mM DPC |  |  | melting temperature | 66.2 °C |
| CC1=C(/C=C/C(=O)N2CCN(C(N)=O)CC2)C(C)(C)CCC1 |  | female mouse, plasma | oral, 20 mg/kg, single dose |  | half-life | 33.4 min |
| Cc1[nH]nc2c1N=C(c1ccccc1Cl)c1cnc(N3CCOCC3)cc1N2 | measured: total radioactivity | human male, plasma | oral, 10 mg |  | apparent volume (Vz/F) | 206 L |
| COC(=O)C(c1ccccc1Cl)N1CCC2SC(=O)C=C2C1 (stereo not drawn) | LC-MS/MS | human plasma extract | 50 ng/mL spiked, 8 h, room temperature |  | measured concentration | 50.1 ± 7.6 ng/mL |
| COCCOCCOCCOCCC(=O)NCc1cc(CNC(=O)CCOCCOCCOCCOC)cc(-c2cc3cc4nc(c(-c5ccc(CCC(=O)O)cc5)c5[nH]c(cc6nc(c(OC)c2[nH]3)CC6(C)C)cc5-c2cc(CNC(=O)CCOCCOCCOCCOC)cc(CNC(=O)CCOCCOCCOCCOC)c2)CC4(C)C)c1 |  | water with 5% DMF | room temperature |  | Qy absorption FWHM | 21 nm |
| C[C@H](Oc1cc(-c2cnn(C3CCN(CC[18F])CC3)c2)cnc1N)c1c(Cl)ccc(F)c1Cl | PET imaging | nude mouse, liver | iv, 5 min post injection |  | tracer uptake | 6.8 ± 0.8 %ID/cc |
| NCCCNc1nc2cc(Cl)ccc2n1Cc1ccccc1 | metabolic stability | rat, liver microsomes | 0.1 µM, 30 min, pH 7.4 |  | compound remaining | 93.3% |
| COc1ccc2cc(-c3ccc(-c4ccc(C)cn4)nc3)oc2c1 | TCSPC | DMSO |  |  | radiative decay rate constant | 0.46 ns⁻¹ |
| CC(C)[C@H](CO)Nc1nc(Nc2ccc(C(=O)NCCNS(=O)(=O)c3cccc4c(N(C)C)cccc34)c(Cl)c2)c2ncn(C(C)C)c2n1 |  | ND2-SmoA1 mouse, medulloblastoma, medulloblastoma tumour | intraperitoneal, 20 mg/kg, 4 h |  | concentration | 500 ± 200 nM |
| [11CH3]c1ccc2nc(C3CCC3)n(-c3ccc4[nH]ncc4c3)c2n1 | extrapolated from mouse biodistribution | human male, drain |  |  | absorbed dose | 1 µSv/MBq |
| CCOc1c(C(C)(C)O)sc2cnc(Nc3ccc(N4CCC(N5CC6(COC6)C5)CC4)cc3OC)nc12 | microelectrode | male New Zealand rabbit, isolated Purkinje fibres | 30 µM, pacing 3 Hz |  | APD90 change | no effect |
| C=CC(=O)Nc1cc(Nc2nccc(-c3cn(C4CC4)c4ccccc34)n2)c(OC)cc1N(C)CCNC | LC-RAM/HRMS | human male, plasma | oral, 110 mg, 10 h | baseline: total radioactivity | share of radioactivity | 3.45% |
| O=C(O)C1CN(Cc2ccc(-c3noc(-c4ccc(OCC[18F])c(C(F)(F)F)c4)n3)cc2)C1 |  | rat, blood | intravenous, 1 h |  | tracer uptake | 0.223 %ID/g |
| COc1ccc(Nc2nc(Nc3ccc(OCCOCC[18F])cc3)ncc2Br)cc1 |  | ICR mice, S180 tumour | intravenous, 370 kBq, 15 min | baseline: tumour over bone | uptake ratio | 1.64 |
| O=C(CCc1ccc(CNC(C(=O)O)C2CCCCC2)cn1)NO (stereo not drawn) |  | healthy male humans, plasma | oral, 10 mg, single dose, geometric mean |  | AUC(0-t) | 37.2 ng·h/mL |
| COc1c(Cl)ccc(Cl)c1C(=O)OC[C@H]1OC(O)[C@H](O)[C@@H]1O (stereo partly drawn) | HPLC | water | 1 days |  | dicamba formed | 1% |
| C=CC(=O)Nc1cc(Nc2nccc(-c3cn(C4CC4)c4ccccc34)n2)c(OC)cc1NC | LC-RAM/HRMS | human male, plasma | oral, 110 mg, 2 h | baseline: total radioactivity | share of radioactivity | 8.11% |
| N=C(N)NCCC[C@@H]1NC(=O)[C@H](Cc2c[nH]c3ccccc23)NC(=O)[C@@H](CC2CCCCC2)NC(=O)[C@@H]2CCCN2C(=O)[C@@H](NC(=O)CCc2ccccc2)CCCNC1=O | two-compartment model | C57BL/6J mouse, plasma brain | oral, 1 mg/kg single dose |  | K21 | 2.88 h⁻¹ |
| CCCCCCCCCCCCCCCC(=O)N[C@@H](CCCCN)C(=O)N[C@@H](CCCCN)C(=O)N[C@@H](CO)C(=O)N[C@@H](CCCNC(=N)N)C(=O)N[C@@H](C)C(=O)N[C@@H](CC(C)C)C(=O)N[C@@H](Cc1ccccc1)C(N)=O |  | CAD/ACS patients undergoing catheterization | 0.3 and 0.5 mg/kg |  | tolerability | not toxic |
| CCc1cc(Nc2nc(-c3ccc(-n4cnc(C)c4)c(F)c3)cs2)c(C)cc1C |  | human, both sexes, plasma | oral, 100 mg, day 1, multiple dose, geometric mean |  | apparent terminal volume (Vz/F) | 568000 mL |
| CCCC(CCC)NC(=O)c1ccc(OC2OC(C(=O)O)C(O)C(O)C2O)c(OC)c1 (stereo not drawn) | LC-MS | Sprague-Dawley rats, pooled sexes, plasma | oral, 200 mg/kg of parent drug, 1 h | baseline: total peak area | metabolite peak area | 17.4% |
| CNC(=O)N[C@]1(C)CCC[C@@]2(C)C3CC[C@@]4(C)C[C@]3(CCC21)CC4=O (single isomer, unassigned) |  | processed rat plasma | 1.5 ng/mL, 24 h, room temperature, autosampler stability |  | measured concentration | 1.61 ± 0.15 ng/mL |

Excerpt of the above:
| SMILES | assay | system | conditions | how to read | endpoint | result |
| --- | --- | --- | --- | --- | --- | --- |
| CC1=C(/C=C/C(=O)N2CCN(C(N)=O)CC2)C(C)(C)CCC1 |  | female mouse, plasma | oral, 20 mg/kg, single dose |  | half-life | 33.4 min |
| CC12CC(c3ccc(S(C)(=O)=O)cc3)C3=C4CCC(=O)C=C4CCC3C1CCC2(O)C(F)(F)C(F)(F)F (stereo not drawn) |  | human, plasma | oral, 4 mg, single dose alone, geometric mean |  | apparent oral clearance | 12.3 L/h |
| C[C@H](Oc1cc(-c2cnn(C3CCN(CC[18F])CC3)c2)cnc1N)c1c(Cl)ccc(F)c1Cl | PET imaging | nude mouse, liver | iv, 5 min post injection |  | tracer uptake | 6.8 ± 0.8 %ID/cc |
| CCCCCCCCCCCCCCCC(=O)N[C@@H](CCCCN)C(=O)N[C@@H](CCCCN)C(=O)N[C@@H](CO)C(=O)N[C@@H](CCCNC(=N)N)C(=O)N[C@@H](C)C(=O)N[C@@H](CC(C)C)C(=O)N[C@@H](Cc1ccccc1)C(N)=O |  | CAD/ACS patients undergoing catheterization | 0.3 and 0.5 mg/kg |  | tolerability | not toxic |
| Cc1ccc(C(=O)N[C@@H](CO)CC(C)C)cc1CO | LC-MS | Sprague-Dawley rat, both sexes, rat liver microsomes | 10 µM of parent drug, 10 min, pH 7.4, with: NADPH | baseline: parent drug at time zero | metabolite peak area | 0.2% |
